Results pooled from the literature.
Lines come from different studies, so protocols differ. Values joined by “and” are separate records of one study, mostly repeats; a detail may differ. Numbers after ± are the reported error. In brackets after ≈: the same amount, converted by molar mass.

CCc1cc(C(=O)NC)c2nccc(N3CCc4c(cc(Cn5ccnc5)cc4-c4cn(C)nc4C(F)(F)F)C3=O)c2c1: “body weight change” 2% (Sprague Dawley rat; oral, 50 mg/kg once daily, day 2, 7-day toxicology study; relative to: day 1).
C[C@@H](Nc1cc(F)cc(F)c1)c1cc(C(=O)N(C)C)cc2c(=O)cc(N3CCOCC3)oc12 — result for “t1/2 geometric mean”: 3.41 h (human, plasma; oral, 60 mg, day 1 single dose).
For CCCCC1=NC2(CCCC2)C(=O)N1Cc1ccc(-c2ccccc2S(=O)(=O)Nc2noc(C)c2C)c(COCC)c1, the AUC(0-inf) was 12000 ng·h/mL (healthy adult volunteers, plasma; oral, 50 mg, single dose, fasted, crushed tablet).
O=C(O)c1cc(O)c(O)c(O)c1 gave an AUC of 1.35 ± 0.33 µM·h (broiler chickens, serum; oral, in feed, 2000 mg/kg feed, wheat diet, no tannins).
CN1C(=O)[C@@H](NC(=O)c2nnc(Cc3ccccc3)[nH]2)COc2cccnc21 — result for “medical device site reaction incidence”: 25% (phase I multiple ascending dose; human, male and female; oral, 50 mg, 14 days).
The kinetic solubility of N#Cc1ccccc1-c1nc(N2CCC(c3ccccn3)C2)c2ccccc2n1 (stereo not shown) is reported as 1 µg/mL (Japanese Pharmacopoeia disintegration test solution 2; pH 6.8).
O=C(Nc1nc2cccc(-c3ccc(CN4CCS(=O)(=O)CC4)cc3)n2n1)C1CC1: “treatment-emergent adverse events” 5.9% (item: diarrhoea; human rheumatoid arthritis patients; oral, 30 mg once daily, 4 weeks, regardless of relatedness).
O=C(O)CCC(=O)O.[2H]C([2H])([2H])Oc1cc(C)c2[nH]ccc2c1CN1CC[C@@H](C2CC2)C[C@H]1c1ccc(C(=O)O)cc1 — result for “subjects with TEAE Acne”: 0% (multiple ascending dose; healthy Chinese subjects; 200 mg once daily).
For CNCCOC12CC3(C)CC(C)(CC(Cn4ncc(-c5ccc(N6CCc7cccc(C(=O)Nc8nc9ccccc9s8)c7C6)nc5C(=O)O)c4C)(C3)C1)C2, “heart rate change” read -5% (beagle dog, male, anaesthetised; intravenous bolus, 0.03 mg/kg, 75 min; relative to: baseline).
OC[C@H]1O[C@@H](c2ccc(F)c(Cc3cc4ccccc4s3)c2)[C@H](O)[C@@H](O)[C@@H]1O: “hypoglycaemia-related adverse event” 3% (Japanese patients, type 1 diabetes; oral, 100 mg/day, onset day 10; relative to: patients).
Cc1cccc(CNC(=O)c2cn(CCNC(=O)c3ccccc3S)c3cc4c(cc3c2=O)OC(F)(F)O4)n1 has a Cmax of 5420 ± 552 ng/mL (Sprague-Dawley rat, male, plasma; intravenous, 20 mg/kg of parent drug).
The tissue concentration of CN(C(=O)n1cnc(-c2ccc[n+]([O-])c2)c1)[C@H]1CC[C@H](O)CC1 is reported as 14.1 ± 0.5 ng/g (rat, hippocampus; oral, 10 mg/kg single dose, 4 h).
With CCc1c(-c2ccccc2)c(-c2ccccc2)nn1-c1ccccc1-c1cccc(OCC(=O)O)c1 the concentration was 446 ng/mL and 535 ng/mL (Sprague-Dawley rat, heart homogenate; oral, 10 mg/kg, 1 h).
For CN(CCCN1CCN(C(=O)CN2CCN(CC(=O)[O-])CCN(CC(=O)[O-])CCN(CC(=O)[O-])CC2)CC1)c1ccc2nccc(C(=O)NCC(=O)N3CC(F)(F)C[C@H]3C#N)c2c1.[68Ga+3], the uptake was 1.1 ± 0.3 %IA/g (mouse HT-1080-hFAP and HT-1080 xenografts, femur; intravenous, 500 pmol, 1 h).
The tumour-to-liver ratio of COc1cccc(OC)c1-c1cc(C(=O)NC2(C(=O)O)C3CC4CC(C3)CC2C4)nn1-c1ccc(C(=O)N(C)CCCN(C)CCCN(C)C(=O)CN2CCN(CC(=O)[O-])CCN(CC(=O)[O-])CCN(CC(=O)[O-])CC2)cc1C(C)C.[177Lu+3] (stereo not shown) is reported as 11.3 (mouse, HT-29 xenograft; 168 h post injection, biodistribution; relative to: tumour over liver uptake).
The thermodynamic solubility of Cc1ccc(NS(=O)(=O)c2cc(C(=O)Nc3ccccc3C(=O)N3CCOCC3)ccc2Cl)c(C)c1 is reported as less than 7.14 µM (aqueous buffer; pH 7.4).
O=C1NCCc2nc(OCc3cccc(F)c3)ccc21: “Irwin test score” 0 (item: Convulsions; Sprague-Dawley rat, male; oral, 100 mg/kg, 1 h, score 0 none to 2 full; direction not given).
Under “creatinine increase incidence (all grades)”, CNC(=O)c1ccc(-c2cnc3ncc(Cc4ccc5ncccc5c4)n3n2)cc1F is recorded as 21% (CTCAE v4.0, any causality; human cancer patients; oral, dose not given, dose escalation).
Cn1cc(Nc2nccc(-c3ccc4c(c3)CN(C3COC3)CC[C@H]4NC(=O)c3cn(C(C)(C)C)nn3)n2)cn1 — result for “CD4+ T cell count change”: -2.98% (human, whole blood; 150 mg twice daily, day 7; relative to: pre-dose baseline).
The nausea incidence of CNCc1ccc(-c2[nH]c3cc(F)cc4c3c2CCNC4=O)cc1 is reported as 44.4% (human patients; oral, 480 mg twice daily, all grades).
For CCCC1CCC(c2ccc(OCC)c(F)c2F)CC1 (stereo not shown), “median fetal accumulation” read 0.209 ng/g (rat, fetus; 1000 ng/mL in perfusate, middle dose, mixture of 21 LCMs).
Cc1cc(C)c(CNC(=O)c2cc(Cl)c3c(c2C)O[C@@](C)([C@H]2CC[C@H](N(C)C)CC2)O3)c(=O)[nH]1 has a fecal excretion of 63.6% and 67.4% and 50% and 51.6% (radiochromatography; human, feces; oral, 200 mg; relative to: dose).
For NC1(C(=O)N[C@@H](CCO)c2ccc(Cl)cc2)CCN(c2nc[nH]c3nccc2-3)CC1, “incidence of Hyper-glycaemia” read 66.7% (metastatic CRPC patients; 320 mg b.i.d., any grade, treatment-related, added: enzalutamide 160 mg daily).
[18F]c1ccc(-c2ccc3c(c2)[nH]c2ccncc23)cn1 has an uptake of 6.79 ± 2.13 SUV (ex vivo biodistribution; B6SJL mouse, normal, urine; intravenous, 30 min).
With C[C@@H](O)[C@H](NC(=O)c1ccc(-c2ccccc2)cc1)C(=O)NO the thermodynamic solubility was 302 µM (≈ 95.1 µg/mL) (aqueous buffer; pH 7.4).
For COc1cc2[nH]c(C)c(-c3ccc(OCc4ccccc4)cc3)c(=O)c2cc1Cl, the kinetic solubility was less than 2 µM (pH 7.4).
The thermodynamic solubility of COc1ccc2c(c1)c(CC(=O)O)c(C)n2C(=O)c1ccc(Cl)cc1 is reported as 80.6 ± 3.69 mg/g (shake-flask; Cremophor ELP; 37 °C, water up to 0.5% w/w).
For O=C1CCc2ccc(OCCCCN3CCN(c4cccc(Cl)c4Cl)CC3)cc2N1, “extrapyramidal symptom frequency” read 9.2% (CYP2D6 intermediate metabolizers; concentration not given, genotype-based phenotype, long-acting oral or depot).
The AUC(0-4h) of COc1cc([C@@H]2[C@H]3CO[C@@]4(O)C(=O)[C@@H]2C=C([C@H]2Oc5cc(O)cc(O)c5C(=O)[C@@H]2O)[C@@H]34)ccc1O is reported as 0.2 µM·h (FVB wild-type mice, plasma; oral gavage, 500 mg/kg silymarin, geometric mean).
With N#Cc1ccc2c(c1)[C@H]1CCCN(C(=O)c3ccc4[nH]cnc4c3)[C@H]1C2 the androstenedione level was 10.7 nmol/L (human, male; 160 mg, day 7).
FC(F)(F)c1ccc(CNc2ccc(Cc3c[nH]c4ncc(Cl)cc34)cn2)cn1: “treatment-related adverse events” 33% (item: Nausea; patients with advanced solid tumours, non-TGCT cohort; oral, 1000 mg/day, any grade).
CC(C)(O)c1ccccc1CC[C@@H](SCC1(CC(=O)O)CC1)c1cccc(/C=C/c2ccc3ccc(Cl)cc3n2)c1 has a blood-to-plasma ratio of 0.58 (fresh human whole blood; 1 µM, pH 7.4).
For COc1ncc(-c2nc3c(n2C(C)C)[C@H](c2ccc(Cl)cc2)N(c2cc(Cl)cn(C)c2=O)C3=O)c(OC)n1, “AUC(0-t) geometric mean” read 2670 ng·h/mL (human patients, plasma; oral, 25 mg, 0-24 h, low-dose arm, cycle 1 day 1).
Under “AUEC(0-4 h) diastolic BP”, CCO is recorded as -26 ± 21.3 h·mmHg (healthy Chinese men; 0.5 g/kg, supine or semi-supine, added: placebo).
For Cc1ccc([C@@H]2O[C@H](CO)[C@@H](O)[C@H](O)[C@H]2O)cc1Cc1ccc(-c2ccc(F)cc2)s1, “urinary sodium excretion change” read 3.64 mEq (Japanese type 2 diabetes patients; 200 mg, day 6, 24 h urine collection; relative to: baseline).
C[C@@H](N)C1CCN(S(=O)(=O)c2cccc3cnccc23)CC1 — result for “incidence of syncope”: 0% (healthy volunteers; oral, 75 mg, single ascending dose, fasted).
With c1csc(CNc2cc[nH]n2)c1 the tail DNA was 1.71% (alkaline comet; Hsd:ICR(CD-1) mice, male, liver; oral, 250 mg/kg/day, 3 days).
For Cl.[2H]C([2H])([2H])CC(=O)c1cnc(NC(=O)C2CC2)cc1Nc1cccc(-c2ncn(C([2H])([2H])[2H])n2)c1OC, the half-life was 7.68 h (geometric mean; human; oral, 20 mg twice daily, day 7, fed, liquid, multiple dose).
For CN1CCN(C(=O)CN(C)S(=O)(=O)c2ccc3ccccc3c2)CC1, the thermodynamic solubility was 2690 µM (≈ 971 µg/mL) (aqueous buffer; pH 7.4).
With c1cc(-c2ccc3ncnc(Nc4ncco4)c3c2)nc(N2CCOCC2)n1 the thermodynamic solubility was 3 µM (≈ 1.13 µg/mL) (0.1 M phosphate buffer; pH 7.4, 25 °C).
O=C(OC(C(F)(F)F)C(F)(F)F)N1CCN(Cc2cccc(Oc3ccccc3)c2)CC1 gave a k2 of 0.031 min⁻¹ (PET blocking study; rhesus monkey, brain OCC; 0.03 mg/kg, compound pretreatment, added: [18F]T-401 tracer).
Under “AUCinf geometric mean ratio”, N#CCNC(=O)c1ccc(-c2ccnc(Nc3ccc(N4CCOCC4=O)cc3)n2)cc1 is recorded as 112% (healthy volunteers, plasma; dose not given, added: rifampin single-dose; relative to: with rifampin over alone).
Under “grade ≥2 event rate”, O=C(Nc1ccc(OC(F)(F)Cl)cc1)c1cnc(N2CC[C@@H](O)C2)c(-c2ccn[nH]2)c1 is recorded as 0.3% (per laboratory record, item: bilirubin increase; human patients; oral, dose not given).
For Cc1nc2cccc(OCC(C)(C)C(=O)NC(C)C)c2c(N)c1C(=O)O, “mean body weight change” read -0.2 ± 0.4 g (Swiss albino CD-1 mouse; oral, 1000 mg/kg, 24 h).
For Cc1cc(-c2nccc3c2ccn3CC(=O)Nc2ccc(-c3cnccn3)cn2)ccn1, “subjects with gastrointestinal disorders TEAEs” read 16.7% (human; SAD part, single 40 mg dose).
CC(=O)O[C@H]1C(=O)[C@@]2(C)[C@H]([C@H](OC(=O)c3ccccc3)[C@]3(O)C[C@H](OC(=O)[C@H](O)[C@@H](NC(=O)c4ccccc4)c4ccccc4)C(C)=C1C3(C)C)[C@]1(OC(C)=O)CO[C@@H]1C[C@@H]2O: “adverse event incidence” 11% (item: Hypophosphataemia; patients with advanced solid tumours; intravenous, dose not given, all grades, possibly related to drug).
CNC(=O)c1cccc(-c2ccc(O[C@H]3O[C@H](CO)[C@@H](O)[C@H](O)[C@@H]3O)c(C)c2)c1 has an AUC(all) of 22.1 ng·h/mL and 12.8 ng·h/mL and 34.6 ng·h/mL (Sprague-Dawley rat, male, plasma; oral, 10 mg/kg).
For C[C@@H](NC(=O)N1C(=O)[C@H](Cc2ccnc(N)c2)[C@H]1C(=O)O)C1CCCCC1, the Vd was 0.568 L/kg (UPLC-MS/MS; healthy adult Chinese volunteers, plasma; continuous intravenous infusion, 1.0 mg/kg/h, day 6 of 5-day infusion, mean).
O=C(O)C1CCN(c2nc(-c3ccccn3)nc3ccccc23)C1 (stereo not shown) gave a kinetic solubility of 79 µg/mL (Japanese Pharmacopoeia disintegration test solution 2; pH 6.8).
CCOc1c([C@H](C)n2nc(C)c3c(N)ncnc32)cc(Cl)c(F)c1[C@@H]1CNC(=O)C1 has an ECG observations of 1.2% (item: QTcF change above 60 ms; previously treated B-cell malignancy; oral, 20 mg once daily, baseline QTcF ≤450 ms; relative to: baseline).
For CCCCc1ccc(-c2ccc(C#N)cc2)cc1, “median placental accumulation” read 8.24 ng/g (Sprague-Dawley rat, female, placenta; 1000 ng/mL in perfusate, 50 (unit not given), middle dose, mixture of 21 LCMs).
For Oc1ccc(/C=C/c2cc(O)cc(O)c2)cc1, the Vd/F was 52.5 ± 10.2 L/kg (male Wistar rats, plasma; oral, 10 mg/kg).
CCN1CCN(Cc2ccc(NC(=O)c3ccc(C)c(NC(=O)c4cncc(-c5cccs5)c4)c3)cc2C(F)(F)F)CC1 has a plasma concentration of 808 ng/mL and 453 ng/mL and 484 ng/mL (LC-MS/MS; C57BL/6 mouse, plasma; intraperitoneal, 15 mg/kg single dose, 1 h).
COC(=O)c1ccc2c(c1)NC(=O)/C2=C(\Nc1ccc(N(C)C(=O)CN2CCN(C)CC2)cc1)c1ccccc1 has a Vd/F of 15400 L (healthy volunteers, plasma; oral, 150 mg, added: pirfenidone).
For Cc1cc([C@H]2C[C@H]3[C@@H](CF)SC(N)=N[C@@]3(c3ccc(F)cc3F)CO2)on1, the brain concentration was 14 nM (male 129/SVE wild-type mouse, brain; subcutaneous, 30 mg/kg, 9 h).
Under “median placental accumulation”, CCC[C@H]1CC[C@H](c2ccc(C#N)cc2)CC1 is recorded as 649 ng/g (Sprague-Dawley rat, female, placenta; 5000 ng/mL in perfusate, 50 (unit not given), high dose, mixture of 21 LCMs).
COc1ccc2[nH]c([S+]([O-])Cc3ncc(C)c(OC)c3C)nc2c1 (stereo not shown) gave an AUC(0-t) of 672 ± 484 ng·h/mL (healthy Chinese volunteers, plasma; oral, 20 mg, fed, CYP2C19 intermediate metabolizers).
O=C(Nc1cnccc1Cl)N1CCN(Cc2ccc3c(c2)OC(F)(F)O3)CC1 — result for “adverse event incidence”: 0% (item: Somnolence; human healthy young men; 25 mg, multiple dose).

Excerpt of the above:
[18F]c1ccc(-c2ccc3c(c2)[nH]c2ccncc23)cn1 has an uptake of 6.79 ± 2.13 SUV (ex vivo biodistribution; B6SJL mouse, normal, urine; intravenous, 30 min).
With C[C@@H](O)[C@H](NC(=O)c1ccc(-c2ccccc2)cc1)C(=O)NO the thermodynamic solubility was 302 µM (≈ 95.1 µg/mL) (aqueous buffer; pH 7.4).
For COc1cc2[nH]c(C)c(-c3ccc(OCc4ccccc4)cc3)c(=O)c2cc1Cl, the kinetic solubility was less than 2 µM (pH 7.4).
The thermodynamic solubility of COc1ccc2c(c1)c(CC(=O)O)c(C)n2C(=O)c1ccc(Cl)cc1 is reported as 80.6 ± 3.69 mg/g (shake-flask; Cremophor ELP; 37 °C, water up to 0.5% w/w).
